Assay results from different studies.
Compare with care: the assays were run in different laboratories. “And” joins repeats or separate records; there may be more than shown. Numbers after ± are the reported error.
Cell line: HL-60

| Compound | assay | conditions | IC50 |
| --- | --- | --- | --- |
| CCNC(=O)Nc1ccc(S(=O)(=O)Oc2ccccc2CC)cc1 | cell growth or viability, MTT | 48 h | 10 µM |
| O=C1c2ccc3c4cccc5c(N6CCNCC6)ccc(c6ccc(c2c36)C(=O)N1CCN1CCCCC1)c54 | cell growth or viability, SRB | 72 h | 50.9 µM |
| COc1c(OCc2ccccc2)cc2oc3cc(OCc4ccccc4)c(CC=C(C)C)c(O)c3c(=O)c2c1CC=C(C)C | cell growth or viability | 48 h | 5.96 µM |
| Cc1cc(C=O)cc(C)c1Oc1cc(Nc2ccc(C#N)cc2)nc2cnccc12 |  | 48 h | 8.9 ± 2.1 µM |
| [Ru+2].c1ccc(-c2cccc(-c3ccccn3)n2)nc1.c1ccc2nc(-c3ccc4ccccc4n3)ccc2c1.c1cnccn1 | cell growth or viability | dark | ~30 µM and 34.6 µM |
| C/C1=C\CC[C@@]2(C)O[C@H]2[C@H]2OC(=O)[C@@H](CSC(=S)N(C)c3cccnc3)[C@@H]2CC1 | cell growth or viability, MTT | 72 h | 39.3 µM |
| [Ru+2].c1ccc(-c2cccc(-c3ccccn3)n2)nc1.c1cnc(-c2cnccn2)cn1.c1cnccn1 | cell growth or viability | dark | ~30 µM and 30 µM |
| COc1c(O)cc2oc3cc4c(c(O)c3c(=O)c2c1CC=C(C)C)C=CC(C)(C)O4 | cell growth or viability | 48 h | 13.7 µM |
| Cc1cc(C=O)cc(C)c1Oc1cc(Nc2ccc(C#N)cc2)nc2ccncc12 |  | 48 h | 18.2 ± 3.4 µM |
| C/C1=C\CC[C@@]2(C)O[C@H]2[C@H]2OC(=O)[C@@H](CSC(=S)N3CCN(C)CC3)[C@@H]2CC1 | cell growth or viability, MTT | 72 h | 4.4 µM |
| O=C(O)c1ccc(-c2nc(-c3cccc(C(F)(F)F)c3)cs2)cc1 | cell growth or viability, ATP luminescence | 72 h | 0.71 µM |
| Cc1cccc2c(=O)c3c(NCCCCCCC(=O)Nc4ccccc4N)ccc([N+](=O)[O-])c3[nH]c12 | cell growth or viability, MTT | 72 h | 4.3 µM |
| COc1c(OC(C)=O)cc2oc3cc(OC(C)=O)c(CC=C(C)C)c(O)c3c(=O)c2c1CC=C(C)C | cell growth or viability | 48 h | 11.9 µM |
| O=C1c2ccc3c4ccc5c6c(ccc(c7ccc(c2c37)C(=O)N1CCN1CCCCC1)c64)C(=O)N(CCN1CCCCC1)C5=O | cell growth or viability, SRB | 72 h | 86.2 µM |
| S=C(S)NCc1cccnc1 | cell growth or viability, MTT | 72 h | 4.1 µM |
| CC1=C(Cn2c3cccc(=O)c-3nc3ccccc32)CCC(C)(C)C1 | cell growth or viability, CCK-8 | 72 h | 0.36 µM |
| COc1ccc(CCCN[C@@H]2CCC[C@H]2CN[C@@H]2CCC[C@H]2CNCCCCN[C@H]2CCC[C@@H]2CN)cc1 | cell growth or viability, resazurin | 96 h | 49 µM |
| C/C1=C\CC[C@@]2(C)O[C@H]2[C@H]2OC(=O)[C@@H](CSC(=S)N3CCCCC3)[C@@H]2CC1 | cell growth or viability, MTT | 72 h | 7.4 µM |
| COc1c(O)c(Br)c2oc3c(Br)c(O)c(CCC(C)C)c(O)c3c(=O)c2c1CCC(C)C | cell growth or viability | 48 h | 14.9 µM |
